Published values gathered from unrelated publications.
Parts stem from different laboratories: compare values within a part only.

Series 1
Target: RING finger protein unkempt homolog, zinc fingers 1-6, GST-SBP tag (UNK, Homo sapiens, UniProt Q9C0B0, residues 30-357)
Method: RNA Bind-n-Seq
Form: RNA
Medium: in vitro
Concentration: not given
Setting: RNA with constant flanks, human-mouse chimeric sites, ends assumed
Reference: input RNA pool
Reading: higher = stronger binding
Constant ends, left off below: GGGAGUUCUACAGUCCGACGAUC … CAACAGAGGAUUGAGCAUCA
Target sequence (chain): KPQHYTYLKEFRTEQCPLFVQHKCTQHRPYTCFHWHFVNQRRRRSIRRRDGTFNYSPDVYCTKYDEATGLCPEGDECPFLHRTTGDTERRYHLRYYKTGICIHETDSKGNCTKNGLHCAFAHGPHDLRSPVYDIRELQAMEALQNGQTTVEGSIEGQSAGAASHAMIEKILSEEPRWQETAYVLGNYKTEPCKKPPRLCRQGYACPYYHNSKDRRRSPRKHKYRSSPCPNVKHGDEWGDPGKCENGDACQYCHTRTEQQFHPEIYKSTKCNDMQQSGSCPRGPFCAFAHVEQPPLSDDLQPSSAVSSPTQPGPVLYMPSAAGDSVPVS
| Oligonucleotide | bound/input enrichment |
| --- | --- |
| AAUUUCCUGUCAUACUUUUUAGACAUUCACAUCAGACUUACAGAGCACCUGGCCACAUUCUAGGUUUGUGUUAUUUCUCAGCUAUGGAUAUGAUCAAAGAGUGAAAAUGGCAGCCAGAUG | 0.768 ratio |
| AGUGUGCAGGAAUUCAUGACCUUUACAAGUCAACUGAUUGUGGAGCGCUCAUCGAAAGGCAGCAGAGCUUCUGUCAAAGAACAAGAGUAUCUUUGCCAUGUCUACGUCCGGAGCGACAGU | 0.0824 ratio |
| UUUGUAUUUAUGCUAAGCACACGUGCUGGUGGUCUUGGCAUCAAUCUUGCAACUGCUGAUGUAGUAAUUUUAUAUGACUCAGAUUGGAAUCCGCAAGUUGAUCUUCAGGCUAUGGACCGU | 0.269 ratio |
| AGUUCCAAACCACCAUCAGAAAUGAAGAUGAGAUUACCCAGACGAGCCAAAACAGCUGCGCUACAGAAAAGUAAACUUAACCUUGCAGAGUUCCUUAAAUGAAGAUCAAGUUAAGAGAGC | 0.383 ratio |
| UCCCUGUUGCUGAAUAAAUGGCUUGUAAAGAAGUUUUUCCAAGCUGUAACCCAUGCUGUUAUUAUAGUUGCUGCAAAAUGUUCUUCCUGAUAUUGAUUUUAUUUGUUAACUGAAGGUCUC | 0.57 ratio |
| GAAUCCUACUCAGGCGGAUUUUGCAACACCAAGCUCACAGCAGCAGCAUCUUAGUCACAGUAGGGUAGUUUUGGGGCUCUGUGGCCAGGGUUUUAUUCAUGUGCAGGUUUUGAAAAUGUA | 1.25 ratio |
| GAUCAUGAACCACCAUCAGAAAUGAAGGAUGAGACUACCAAGACGAGCAAAACAGCUGCGCUACAGAAAAGUAAACUUAACCUUGCAGAGUUCCUUAAUGAAGAUACAAGUUAAGAGAGC | 0.131 ratio |
| GUUGCCAGGUUCCGGUGCCGUUGGGCUCGGUUCUCUCCUGAGCUACGUGUCUCUACGCUCUCAAUCCGCCAUCCAACAAACAUGGAUGAUCAGGUAAAGUUUGUGGAGCCCAGCCGGCAG | 0.0836 ratio |

Series 2
Target: Interferon regulatory factor 5, full length, phosphomimetic (IRF5, Homo sapiens, UniProt Q13568-2, residues 1-514, K96S/S451D/S453D/S456D/S462D)
Method: protein-binding microarray
Form: double-stranded DNA, one strand shown
Medium: in vitro
Concentration: 250 nM
Setting: 60-bp whole probe
Together with: salmon DNA 0.4 mg/ml
Reference: random background probes
Reading: higher = stronger binding
Constant ends, left off below: GCCTAGCAC … GTCTTGATTCGCTTGACGCTGCTG
| Oligonucleotide | log fluorescence |
| --- | --- |
| TTAGGCTTCGGGACTGGGTTAGTGCTA | -0.149 z-score |
| TACGGACTGGGGACTGGGGACGTGCTA | -0.648 z-score |
| GACGGTATCGACTTTCGGGAAGTGCTA | 6.84 z-score |
| TTAGGTTTCCTTATCCTTTTGTGCTAG | 1.21 z-score |
| GTAGGACTGGGGTATCGGTTAGTGCTA | 2 z-score |
| TTAGGTTTCGACTATCGGATAGTGCTA | 8.26 z-score |
| TTAGGTATTGGACTGGGTTAGTGCTAG | -0.312 z-score |
| GACGGTATCGACACTGGGGCCGTGCTA | 1.36 z-score |
| TCACCTTGCTTTATGTGACTGTGCTAG | 0.195 z-score |
| GACGGACTGGACCATCGGGACGTGCTA | -0.522 z-score |
| AACGATTTCAGTTCCGAGACGTGCTAG | 1.53 z-score |
| ATTTGTAAGTACATTAACTCGTGCTAG | 0.328 z-score |
| TTAGGACTGGACACTGGGTTCGTGCTA | -0.596 z-score |
| GACGGTTTCGGTTCCGGCACGTGCTAG | 9.38 z-score |
| TTATATCTGTGTTATTAAATTGTGCTA | 2.04 z-score |
| GACGATTTCAGTTTCGTGACGTGCTAG | 4.29 z-score |
| TCATTTTAGCTTCTCAAACTGTGCTAG | 0.257 z-score |
| TGCCTTTTTTTTTTTTTCTGGTGCTAG | 1.04 z-score |
| TATCAGCAAACTTTTCTTGAGTGCTAG | 3.06 z-score |

Series 3
Target: Ras GTPase-activating protein-binding protein 1, RRM domain (G3BP1, Homo sapiens, UniProt Q13283)
Sequence of UniProt Q13283 (whole entry, looked up): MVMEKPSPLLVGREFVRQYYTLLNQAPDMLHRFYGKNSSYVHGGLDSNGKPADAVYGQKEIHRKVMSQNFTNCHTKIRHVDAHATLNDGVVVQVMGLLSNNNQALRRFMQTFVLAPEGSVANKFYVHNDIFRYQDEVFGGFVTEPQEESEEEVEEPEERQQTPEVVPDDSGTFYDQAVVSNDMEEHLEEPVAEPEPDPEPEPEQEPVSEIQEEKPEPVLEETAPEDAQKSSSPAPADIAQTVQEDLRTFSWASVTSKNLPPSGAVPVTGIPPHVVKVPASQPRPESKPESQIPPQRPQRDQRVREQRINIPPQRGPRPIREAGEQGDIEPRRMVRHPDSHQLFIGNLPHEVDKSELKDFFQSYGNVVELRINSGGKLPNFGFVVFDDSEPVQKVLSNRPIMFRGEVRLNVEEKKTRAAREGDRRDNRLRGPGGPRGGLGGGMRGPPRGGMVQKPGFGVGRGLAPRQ
Method: RNA Bind-n-Seq
Form: RNA
Medium: in vitro
Concentration: 1 µM
Setting: whole 134-nt RNA, ends assumed
Together with: 150 mM KCl
Reference: input library
Reading: higher = stronger binding
Constant ends, left off below: GGGAGUUCUACAGUCCGACGAUC … UGGAAUUCUCGGGUGUCAAGG
| Oligonucleotide | log2 enrichment |
| --- | --- |
| CUGUGCUACACAUCGUAUGUACCGAAUCAAAUUUUUUUAAACCCCCCCAAACCCCCCCAAAAAAGUAUUAUGUUACGCCGUUCGGAUCUG | -1.06 |
| AGUCCUGUGCUACACAUCGUAUGUACCGAAUCGGGGUUUGGGGUUUGGGGAAAGGGGAAAGUAUUAUGUUACGCCGUUCGGAUCUGCACU | 1.73 |
| CUGUGCUACACAUCGUAUGUACCGAAUCGGGGUUUUUUUGGGGUUUUUUUGGGUUUUUUUGGAAAGUAUUAUGUUACGCCGUUCGGAUCU | -0.152 |
| AAGUCCUGUGCUACACAUCGUAUGUACCGAAUCGGGUUUUUGGGUGGGAAAAAGGGAAAGUAUUAUGUUACGCCGUUCGGAUCUGCACUU | 0.502 |
| GUCCUGUGCUACACAUCGUAUGUACCGAAUCGGGUUUUUGGGUUUUUUUGGGUUUGGGAAAGUAUUAUGUUACGCCGUUCGGAUCUGCAC | -0.0262 |
| GUCAAGAAAGAUCUUAAGACUGGUCAUUCAAAGGGGUUUGGCUUUGUUCGUUUUACGGAAUAUGAAACACAAGUGAAAGUAAUGUCACAG | -0.0969 |
| AGUCCUGUGCUACACAUCGUAUGUACCGAAUCGGGGAGGGGAAAAAGGGGAAAGGGGAAAGUAUUAUGUUACGCCGUUCGGAUCUGCACU | 1.24 |
| CUCAAGUCCUGUGCUACACAUCGUAUGUACCGAAUCGGAGGUUUUUGGAAAGGAAAGUAUUAUGUUACGCCGUUCGGAUCUGCACUUCCA | -0.241 |
| GCAGGAUGUAAAAACAAAUGGAAAUGCUUCGGAUAGUGGCAGGGGUGGGGGUUGCUAAGGAAAGGGUGGGAUGGGAGUGGGUAAAGAGUU | 1.13 |

Series 4
Target: RNA binding protein fox-1 homolog 2, RRM domain, GST-SBP tag (RBFOX2, Homo sapiens, UniProt O43251-10, residues 100-194)
Method: RNA Bind-n-Seq
Form: RNA
Medium: in vitro
Concentration: 365 nM
Setting: natural RNA segment, single round, ends assumed
Reference: no-protein control
Reading: higher = stronger binding
Constant ends, left off below: GGGAGUUCUACAGUCCGACGAUC … UGGAAUUCUCGGGUGCCAA
Construct (chain): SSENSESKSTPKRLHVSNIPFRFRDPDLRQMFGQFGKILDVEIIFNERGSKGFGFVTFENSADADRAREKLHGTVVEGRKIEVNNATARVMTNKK
| Oligonucleotide | RBNS enrichment (R) |
| --- | --- |
| GCCAGUUCCUCUCUCGCUCUGUUUCCAGACCUGUCUCUCUCUCUGUCCUGGCAGCUUCUCUGAGGUGCUGCUCGUUUGCAUUAGUCCCGCCUCCUCCAUCUUUCAUGUGG | 0.56 |
| ACUGUCAUGUUCUUUACAUGUCACUUGUCAUUUUUAUUUGUGAAAAAUAAAAAGAUAAUUUAUUCACUUUUAUUGACCUGUUAUUAAGAAGACCAUUACUAAAUGGAGCU | 0.393 |
| GGAGACCGAGGGCUUUGGACAGGAGUACCGAGGCCGCCCCUCCCACGCCCCCCAGCGCACAUGUAGUCCUGAGUCCUCCCUGCCUGAGAGGCCACUGGCCCCGCAGCCCU | 0.263 |
| CGUGUACCCUAGCUCCCCAUCACUGCGCGCCCUCCAAGCUAGAGAGAUGGGACCCCAGGGGGGGUUAGAGCUGGGUGUCCCGAAAACCCAGGCUGGGGCUAUGCGCCGUC | 0.359 |
| UCUGCAUAUCAUCUUUCCCACCUAAAAAUGUCUGAAUGCUUACACAAAUAAAUUUUAUAACACGCUUUUUUGCAUACUCCUUGAAAUGUGACUCUUCAGAGGACAGGGCA | 0.67 |
| UUGUCUGUGUACAGUUUUUAGAACAUUACAAAGGAUCUGUUUGCUUAGCUGUCAACAAAAAGAAAACCUGAAGGAGCAUUUGGAAGUCAAUUUGAGGUUUUUUUUUUUGU | 0.722 |
| AAAAGUAGCAUUCUUAUCUGUUAGAAACAUAGAGUGAGCUUCAUCUGUAAUCCUUAAACUCGAUGUGGUAAGUAGGAAGCAAGAAUUUAUCCUGUGUUUUCAGGCAGCAG | 0.366 |
| GUCAAGCUUCAUGAGUUAAAUUUAACUGUUAGAGAGGAGAAAAGCAUAGCAGUCAUUUGGAACGAUCUCGUGGGGUGGGACUAAGCCAUAAUGAUGUGUCUGGCUCAAGC | 1.23 |

Some of these lines once more (series 2):
| Oligonucleotide | log fluorescence |
| --- | --- |
| AACGATTTCAGTTCCGAGACGTGCTAG | 1.53 z-score |
| ATTTGTAAGTACATTAACTCGTGCTAG | 0.328 z-score |
| TTAGGACTGGACACTGGGTTCGTGCTA | -0.596 z-score |
